Results gathered from unrelated publications.
Values joined by “and” are separate records of one study, mostly repeats; a detail may differ. Numbers after ± are the reported error. In brackets after ≈: the same amount, converted by molar mass.

SMILES | organism | assay | system | conditions | how to read | endpoint | result
OC(Cn1cncn1)(Cn1cncn1)c1ccc(F)cc1F | Saccharomyces cerevisiae | cell growth | Pdr5 deleted, empty vector | 2^-1.515 µg/mL | – | OD600 | 0.173 and 0.149 and 0.194
Cc1ccc(OCCc2ccc(Br)cc2)c(C(N)=O)c1 | Mycobacterium tuberculosis | – | H37Rv-LP | – | relative to: HepG2 CC50 over Mtb IC90 | selectivity index | 60
NC(=S)c1cncc(Cn2c(=S)[nH]c3cc(CO)c(Cl)cc3c2=O)c1 | Mycobacterium tuberculosis | – | PptT conditional knockdown | – | – | MIC90 | 2.76 µM (≈ 1.08 µg/mL)
CC(O)c1ccc(OCCc2cccc(F)c2)c(C(N)=O)c1 (stereo not shown) | Mycobacterium tuberculosis | growth | H37Rv-LP | 120 h | – | IC90 | 6.3 ± 0.59 µM
O=c1c2cccc(Cl)c2[nH]c(=S)n1Cc1cccnc1 | Mycobacterium tuberculosis | – | PptT conditional knockdown | – | – | MIC90 | 73.2 µM (≈ 22.2 µg/mL)
CN(C)C(=O)c1sc2ncccc2c1N | Mycobacterium tuberculosis | growth inhibition | H37Rv LepB under-expressing | – | – | IC50 | > 100 µM
O=C(NC1CC1)c1cc(-c2ccoc2)ccc1OCCc1cccc(F)c1 | Mycobacterium tuberculosis | – | H37Rv-LP | – | relative to: HepG2 CC50 over Mtb IC90 | selectivity index | 15
COc1ccc(-c2cc(C(F)(F)F)c3c(N)c(C(=O)Nc4cc(C)ccc4C)sc3n2)cc1 | Mycobacterium tuberculosis | – | H37Rv wild type | 120 h | – | IC90 | inactive
N#Cc1cc2c(=O)n(Cc3cccnc3)c(=S)[nH]c2cn1 | Mycobacterium tuberculosis | – | PptT conditional knockdown | – | – | MIC90 | 13.4 µM (≈ 3.96 µg/mL)
Cc1ccc(OC2CC(c3ccccc3)C2)c(C(N)=O)c1 (stereo not shown) | Mycobacterium tuberculosis | – | H37Rv-LP | – | relative to: HepG2 CC50 over Mtb IC90 | selectivity index | 0.5
COc1ccc(-c2cc(C(F)(F)F)c3c(N)c(C(=O)NCCSC)sc3n2)cc1 | Mycobacterium tuberculosis | growth inhibition | H37Rv LepB under-expressing | – | – | IC50 | 17 ± 9 µM
O=c1c2cc(Cl)c(CO)cc2[nH]c(=S)n1Cc1cncnc1 | Mycobacterium tuberculosis | – | PptT conditional knockdown | – | – | MIC90 | 1.62 µM (≈ 0.542 µg/mL)
COc1ccc(-c2cc(C(F)(F)F)c3c(N)c(C(=O)NC4CC5(C4)CN(C(=O)OC(C)(C)C)C5)sc3n2)cc1 | Mycobacterium tuberculosis | growth inhibition | H37Rv LepB under-expressing | – | – | IC50 | > 50 µM
O=c1c2cc(Cl)ccc2oc(=S)n1Cc1cccnc1 | Mycobacterium tuberculosis | – | PptT conditional knockdown | – | – | MIC90 | 27.2 µM (≈ 8.29 µg/mL)
Cc1ccc(NCCc2cccc(F)c2)c(C(N)=O)c1 | Mycobacterium tuberculosis | – | H37Rv-LP | – | relative to: HepG2 CC50 over Mtb IC90 | selectivity index | 0.6
COc1ccc(-c2cc(C(F)(F)F)c3c(N)c(C(=O)Nc4cc(C)cc(C)c4)sc3n2)cc1 | Mycobacterium tuberculosis | – | H37Rv wild type | 120 h | – | IC90 | inactive
O=C(O)c1cc2[nH]c(=S)n(Cc3cccnc3)c(=O)c2cc1Cl | Mycobacterium tuberculosis | – | PptT conditional knockdown | – | – | MIC90 | > 100 µM
CCC(C)(O)c1ccc(OCCc2cccc(F)c2)c(C(N)=O)c1 (stereo not shown) | Mycobacterium tuberculosis | – | H37Rv-LP | – | relative to: HepG2 CC50 over Mtb IC90 | selectivity index | 2
COc1ccc(-c2cc(C(F)(F)F)c3c(N)c(C(=O)Nc4cccc(C)c4C)sc3n2)cc1 | Mycobacterium tuberculosis | growth inhibition | H37Rv LepB under-expressing | – | – | IC50 | 0.58 ± 0.2 µM

Repeated from above:
SMILES | organism | assay | system | conditions | how to read | endpoint | result
Cc1ccc(OC2CC(c3ccccc3)C2)c(C(N)=O)c1 (stereo not shown) | Mycobacterium tuberculosis | – | H37Rv-LP | – | relative to: HepG2 CC50 over Mtb IC90 | selectivity index | 0.5
COc1ccc(-c2cc(C(F)(F)F)c3c(N)c(C(=O)NCCSC)sc3n2)cc1 | Mycobacterium tuberculosis | growth inhibition | H37Rv LepB under-expressing | – | – | IC50 | 17 ± 9 µM
